Results pooled from the literature.
Compare with care: the assays were run in different laboratories. “And” joins repeats or separate records; there may be more than shown. Numbers after ± are the reported error.
Oprd1: Delta-type opioid receptor (Oprd1, Rattus norvegicus, UniProt P33533)
UniProt P33533, sequence (whole entry, looked up): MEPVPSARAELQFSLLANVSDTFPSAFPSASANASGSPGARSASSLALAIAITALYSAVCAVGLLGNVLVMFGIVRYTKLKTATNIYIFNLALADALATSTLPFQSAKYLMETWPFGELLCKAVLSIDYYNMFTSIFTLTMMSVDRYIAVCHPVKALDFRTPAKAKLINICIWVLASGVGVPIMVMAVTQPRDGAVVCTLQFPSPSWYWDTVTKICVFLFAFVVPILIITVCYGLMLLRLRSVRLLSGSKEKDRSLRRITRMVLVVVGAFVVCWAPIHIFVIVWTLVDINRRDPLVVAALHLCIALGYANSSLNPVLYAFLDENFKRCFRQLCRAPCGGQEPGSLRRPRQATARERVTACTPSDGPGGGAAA
HRH1: Histamine H1 receptor (HRH1, Homo sapiens, UniProt P35367)
UniProt O08914, sequence (whole entry, looked up): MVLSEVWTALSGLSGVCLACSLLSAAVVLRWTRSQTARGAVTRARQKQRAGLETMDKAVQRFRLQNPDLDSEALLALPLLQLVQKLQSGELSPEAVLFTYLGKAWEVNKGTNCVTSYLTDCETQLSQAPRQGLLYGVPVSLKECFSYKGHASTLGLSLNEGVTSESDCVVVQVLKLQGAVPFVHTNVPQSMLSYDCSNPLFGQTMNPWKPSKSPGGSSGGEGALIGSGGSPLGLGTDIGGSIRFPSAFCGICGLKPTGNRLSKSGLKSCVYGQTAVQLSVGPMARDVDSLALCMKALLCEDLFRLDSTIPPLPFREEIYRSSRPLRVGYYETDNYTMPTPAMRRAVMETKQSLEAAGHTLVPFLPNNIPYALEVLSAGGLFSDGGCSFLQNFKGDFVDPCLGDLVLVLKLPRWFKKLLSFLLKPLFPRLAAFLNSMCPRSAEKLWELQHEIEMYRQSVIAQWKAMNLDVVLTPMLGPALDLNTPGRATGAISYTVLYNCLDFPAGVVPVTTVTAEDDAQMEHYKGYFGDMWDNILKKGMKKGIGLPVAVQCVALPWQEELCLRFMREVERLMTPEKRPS
UniProt Q007T0, sequence (whole entry, looked up): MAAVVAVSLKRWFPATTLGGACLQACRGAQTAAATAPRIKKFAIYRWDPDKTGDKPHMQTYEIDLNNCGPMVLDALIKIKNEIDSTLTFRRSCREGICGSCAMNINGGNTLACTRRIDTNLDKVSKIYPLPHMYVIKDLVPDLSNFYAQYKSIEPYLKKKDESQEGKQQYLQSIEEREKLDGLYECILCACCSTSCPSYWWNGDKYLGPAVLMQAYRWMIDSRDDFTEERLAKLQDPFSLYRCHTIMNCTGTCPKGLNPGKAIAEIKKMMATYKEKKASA
UniProt A5GZW8, sequence (whole entry, looked up): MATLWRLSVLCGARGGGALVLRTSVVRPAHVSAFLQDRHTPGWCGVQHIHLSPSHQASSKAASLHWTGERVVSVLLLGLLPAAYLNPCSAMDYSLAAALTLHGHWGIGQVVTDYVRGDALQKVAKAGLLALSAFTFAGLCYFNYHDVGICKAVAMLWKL
UniProt P24723, sequence (whole entry, looked up): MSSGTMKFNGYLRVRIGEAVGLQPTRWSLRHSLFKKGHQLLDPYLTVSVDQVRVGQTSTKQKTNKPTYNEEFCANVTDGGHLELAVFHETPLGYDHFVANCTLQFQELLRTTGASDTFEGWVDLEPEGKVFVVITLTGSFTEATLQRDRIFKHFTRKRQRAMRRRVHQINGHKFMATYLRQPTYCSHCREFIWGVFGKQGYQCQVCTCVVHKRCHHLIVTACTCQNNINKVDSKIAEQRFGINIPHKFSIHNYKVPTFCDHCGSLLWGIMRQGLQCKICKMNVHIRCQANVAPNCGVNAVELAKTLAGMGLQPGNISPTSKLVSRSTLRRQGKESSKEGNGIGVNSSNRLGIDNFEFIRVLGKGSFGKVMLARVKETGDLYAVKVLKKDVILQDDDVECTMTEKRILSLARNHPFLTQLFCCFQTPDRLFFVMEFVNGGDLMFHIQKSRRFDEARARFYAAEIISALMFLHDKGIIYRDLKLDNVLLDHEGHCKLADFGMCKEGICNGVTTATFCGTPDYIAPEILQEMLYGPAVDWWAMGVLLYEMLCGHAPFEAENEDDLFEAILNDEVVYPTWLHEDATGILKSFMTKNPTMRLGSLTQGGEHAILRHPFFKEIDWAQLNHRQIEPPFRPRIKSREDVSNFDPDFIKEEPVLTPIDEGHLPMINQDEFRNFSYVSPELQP
UniProt P35367, sequence (whole entry, looked up): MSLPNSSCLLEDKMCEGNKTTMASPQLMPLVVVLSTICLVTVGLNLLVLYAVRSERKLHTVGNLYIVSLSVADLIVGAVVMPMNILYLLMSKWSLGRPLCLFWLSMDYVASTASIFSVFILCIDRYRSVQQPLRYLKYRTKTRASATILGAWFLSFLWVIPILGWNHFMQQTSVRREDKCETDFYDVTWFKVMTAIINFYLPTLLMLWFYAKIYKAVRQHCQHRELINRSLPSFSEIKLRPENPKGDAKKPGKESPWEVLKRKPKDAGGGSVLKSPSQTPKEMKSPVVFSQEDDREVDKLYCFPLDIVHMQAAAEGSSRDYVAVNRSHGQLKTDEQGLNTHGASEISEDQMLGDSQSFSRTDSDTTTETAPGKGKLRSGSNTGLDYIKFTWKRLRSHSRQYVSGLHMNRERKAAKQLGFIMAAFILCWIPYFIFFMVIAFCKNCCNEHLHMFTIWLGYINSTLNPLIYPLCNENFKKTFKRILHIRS
UniProt D0VWV4, sequence (whole entry, looked up): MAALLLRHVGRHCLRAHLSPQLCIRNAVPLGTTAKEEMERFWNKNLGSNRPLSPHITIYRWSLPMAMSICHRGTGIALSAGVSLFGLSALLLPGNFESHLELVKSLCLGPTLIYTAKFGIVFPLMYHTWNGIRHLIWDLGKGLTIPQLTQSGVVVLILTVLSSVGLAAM
UniProt Q9Y4K4, sequence (whole entry, looked up): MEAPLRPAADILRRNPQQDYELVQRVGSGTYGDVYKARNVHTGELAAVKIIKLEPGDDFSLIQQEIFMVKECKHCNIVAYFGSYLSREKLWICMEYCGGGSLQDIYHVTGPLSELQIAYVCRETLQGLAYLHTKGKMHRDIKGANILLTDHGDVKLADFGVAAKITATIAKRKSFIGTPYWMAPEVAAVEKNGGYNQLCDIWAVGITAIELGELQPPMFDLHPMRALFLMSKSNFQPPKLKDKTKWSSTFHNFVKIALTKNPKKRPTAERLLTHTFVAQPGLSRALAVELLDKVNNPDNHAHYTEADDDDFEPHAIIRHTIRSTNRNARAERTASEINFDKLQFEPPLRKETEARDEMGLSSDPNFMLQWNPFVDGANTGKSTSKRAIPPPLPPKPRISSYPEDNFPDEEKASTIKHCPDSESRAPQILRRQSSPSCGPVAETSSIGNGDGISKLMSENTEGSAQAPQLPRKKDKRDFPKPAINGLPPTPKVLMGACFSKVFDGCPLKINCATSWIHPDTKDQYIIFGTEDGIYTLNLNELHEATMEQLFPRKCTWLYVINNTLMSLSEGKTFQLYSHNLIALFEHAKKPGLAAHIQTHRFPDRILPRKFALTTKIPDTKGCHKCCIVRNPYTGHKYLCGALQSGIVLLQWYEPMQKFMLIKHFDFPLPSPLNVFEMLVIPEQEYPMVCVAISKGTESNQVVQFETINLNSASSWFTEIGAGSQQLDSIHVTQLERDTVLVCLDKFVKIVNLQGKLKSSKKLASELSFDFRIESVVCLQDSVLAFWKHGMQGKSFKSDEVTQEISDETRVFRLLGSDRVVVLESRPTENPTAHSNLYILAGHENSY
UniProt P51617, sequence (whole entry, looked up): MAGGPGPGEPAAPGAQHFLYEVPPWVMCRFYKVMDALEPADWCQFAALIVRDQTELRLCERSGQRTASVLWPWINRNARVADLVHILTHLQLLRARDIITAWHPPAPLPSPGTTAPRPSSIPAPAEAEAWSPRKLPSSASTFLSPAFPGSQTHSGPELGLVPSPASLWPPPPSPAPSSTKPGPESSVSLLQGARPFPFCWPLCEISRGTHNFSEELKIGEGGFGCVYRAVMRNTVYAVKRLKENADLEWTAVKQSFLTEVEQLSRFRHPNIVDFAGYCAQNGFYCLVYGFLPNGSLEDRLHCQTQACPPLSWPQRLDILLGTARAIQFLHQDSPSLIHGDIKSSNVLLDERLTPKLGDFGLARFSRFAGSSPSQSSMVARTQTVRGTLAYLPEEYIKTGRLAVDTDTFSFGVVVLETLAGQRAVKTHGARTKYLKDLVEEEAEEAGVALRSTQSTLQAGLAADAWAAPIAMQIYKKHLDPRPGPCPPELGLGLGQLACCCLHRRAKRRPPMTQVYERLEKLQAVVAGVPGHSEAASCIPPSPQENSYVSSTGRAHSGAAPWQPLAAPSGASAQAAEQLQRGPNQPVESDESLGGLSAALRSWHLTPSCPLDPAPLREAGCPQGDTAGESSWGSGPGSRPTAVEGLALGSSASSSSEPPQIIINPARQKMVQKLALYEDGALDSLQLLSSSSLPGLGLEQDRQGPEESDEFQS

Compound | target | test | system | conditions | how to read | quantity | result
O=C1NC(=O)c2c1c1cc(F)c[n+]3c1c1c2c2cc(O)ccc2[n]1[Ru-4]312([N]=C=S)[S+]3CC[S+]1CC[S+]2CC3 (stereo not drawn) | EPHB4 (Homo sapiens, UniProt P54760) | enzyme activity |  | 100 nM, human enzyme, added: 10 µM ATP | relative to: untreated | remaining activity | 111%
Cc1cc(Nc2nc(C[C@@]3(C(=O)O)CCN(Cc4cccc(Cl)c4F)[C@H](C)C3)cc(C)c2F)[nH]n1 | Androgen receptor (AR, Homo sapiens, UniProt P10275) | agonist |  | 10 µM |  | activation | -12.7%
CS(C)(=O)=Nc1ccc(-c2ccc(-c3nc4cc(O[C@@H]5CO[C@H]6[C@@H]5OC[C@H]6O)[nH]c4cc3F)cc2)cc1 | IRAK1 (Homo sapiens, UniProt P51617) | enzyme activity, inhibitor |  | 10 µM |  | inhibition | 31%
[CH3][Ti+2][O]C(=O)c1ccc([S][Au][PH](c2ccccc2)(c2ccccc2)c2ccccc2)cc1.c1cc[cH-]c1.c1cc[cH-]c1 | PRKCH (Homo sapiens, UniProt P24723) | kinase activity |  | 1 µM, added: ATP 10 µM |  | remaining activity | 95.8%
Oc1ccc(C[C@@H]2CN([C@H](Cc3ccc4ccccc4c3)CN3CCC[C@H]3CN3CCNC[C@@H]3Cc3ccc4ccccc4c3)CCN2CCCC2CCCC2)cc1 | Oprd1 | radioligand binding | rat brain membranes | 500 nM, pH 7.5, 25 °C, added: 2 nM [3H]DPDPE |  | remaining binding | 90.8%
CON(C(=O)c1cn(C)nc1C(F)F)C(C)Cc1c(Cl)cc(Cl)cc1Cl (stereo not drawn) | SDHD/SDHC/SDHB (Sus scrofa, UniProt A5GZW8+D0VWV4+Q007T0) | enzyme activity, inhibitor, DCIP reduction | pig | 1 µM, added: DCIP 160 µM |  | reaction velocity | 0.00835 µM/s and 0.009 µM/s
CC(=O)NCC(=O)N[C@@H](CO)C(=O)N[C@@H](CS)C(=O)N[C@@H](CCCNC(=N)N)C(=O)N[C@@H](CCCCN)C(=O)N[C@@H](CCCNC(=N)N)C(=O)N[C@@H](CC(N)=O)C(=O)N[C@@H](CCCNC(=N)N)C(=O)N[C@@H](CO)C(=O)N1CCC[C@H]1C(=O)N[C@@H](CCC(=O)O)C(=O)N[C@@H](CCCNC(=N)N)C(N)=O | WDR5 (Homo sapiens, UniProt P61964) | binding, competitor of LANA peptide, ITC |  | pH 7.0, 20 °C, WIN motif peptide |  | ΔG | -6.54 kcal/mol
CCc1nnc(-c2c(OC)cc(-c3cnc4cc(-c5cnn(C)c5)ccn34)cc2OC)o1 | HRH1 | antagonist radioligand, radioligand binding |  | 10 µM, SafetyScreen44 H1 mean | lower = stronger displacement | remaining binding | 106%
CCNC(=S)NN=Cc1c2ccccc2cc2ccccc12.Cc1ccc(C(C)C)cc1.[Cl-].[Cl-].[Ru+2] | Albumin (ALB, Homo sapiens, UniProt P02768) | binding, fluorescence titration | human serum albumin | 308 K |  | ΔG° | -7.22 kcal/mol
N=C(N)N1CCc2ccccc2C1 | Transmembrane protease serine 2, peptidase domain (TMPRSS2, Homo sapiens, UniProt O15393) |  |  |  |  | ligand efficiency | 0.42 kcal/mol
CCO[C@H]1[C@H](O)[C@@H](N)[C@@H](O[C@H]2[C@H](O[C@@H]3O[C@H](CO)[C@@H](O[C@H]4O[C@@H](CN)[C@@H](O)[C@H](O)[C@H]4N)[C@H]3O)[C@@H](O)[C@H](N)C[C@@H]2N)O[C@@H]1CO | HRH1 | radioligand binding |  | 10 µM, 1% DMSO |  | specific binding | 3%
CC#CC(=O)NC[C@H](NC(=O)[C@H](CC1CCCCC1)NC(=O)[C@H](CCC(N)=O)NC(C)=O)C(=O)N[C@@H](CC(C)C)C(=O)N[C@@H](Cc1ccccc1)C(=O)O | Beta sliding clamp (Escherichia coli, UniProt P0A988) | binding, isothermal titration calorimetry |  | 22 °C |  | ΔH | -13.1 kcal/mol
CN(C)CCCSC(=S)N1CCN(C(=O)/C=C/c2coc3ccccc3c2=O)CC1 | Nucleoprotein (N, Tomato spotted wilt virus, UniProt P25999, R94A/Y184A) | binding, microscale thermophoresis |  | 0.1221 µM | dose series | MST response | 0.21 a.u.
CN1CC[C@@]23c4c5ccc(O)c4C[C@@H]2[C@H](O)C=C[C@@H]3[C@@H]1C5 | OPRD1 (Homo sapiens, UniProt P41143) | receptor activation, agonist, cell-based |  |  |  | Emax | < 10%
CCN(N=Cc1cnc2ccc(Br)cn12)S(=O)(=O)c1cc([N+](=O)[O-])ccc1C | PIK3CB (Homo sapiens, UniProt P42338, M783K) |  |  |  | relative to: mutant over wild-type p110β | IC50 fold change | 0.5
Cc1cc(Nc2ccc(Cl)cc2)n2nc(C(F)(F)F)nc2n1 | PFF0160c (Plasmodium falciparum, UniProt Q08210, E182D) | enzyme activity, DCIP colorimetric |  |  | relative to: E182D mutant over wild type | IC50 ratio | 164
CC(C)[C@H]1NC(=O)C[C@H]2/C=C/CCSSC[C@@H](NC1=O)C(=O)N[C@H](Cc1cccc3ccccc13)C(=O)NCC(=O)O2 | MELK (Homo sapiens, UniProt Q14680) | enzyme activity, inhibitor |  | 10 µM |  | inhibition | 17.6%
CN(C)[C@H]1C[C@@]23CC[C@@]4(O2)C(=CC[C@]2(C)[C@@H](c5ccc6ccncc6c5)CC[C@H]24)C=C3[C@@H](O)[C@@H]1O | MAP4K5 (Homo sapiens, UniProt Q9Y4K4) | cell-free assay, inhibitor |  | 1 µM |  | inhibition | -1.4%
N[C@@H](Cc1ccccc1)P(=O)(O)O | Phenylalanine/tyrosine ammonia-lyase (PAL, Rhodotorula toruloides, UniProt P11544) | inhibitor |  | 200 µM, added: L-Phe 5 mM |  | reaction rate reduction | 30%
N[C@H](C(=O)N1CCCC1)C1CCN(c2nccc3c(-c4ncc(Cl)cc4Cl)cccc23)CC1 | CRHR1 (Homo sapiens, UniProt P34998) | functional response, agonist |  | 10 µM |  | response | 5%
CCOC(=O)[C@@H]1Cc2c(cc([N+](=O)[O-])cc2[N+](=O)[O-])[C@H](O)[C@]12C(=O)Nc1ccc(Br)cc12 | ACVR1B (Homo sapiens, UniProt P36896) | binding, competition with immobilised ligand |  | 0.1 µM |  | remaining binding | 89%
CCCC[C@H]1CNCCN1C[C@@H]1CCCN1C[C@H](CC1CCCCC1)N1CCN(CCCC2CCCC2)[C@H]([C@H](C)CC)C1 | Oprd1 | radioligand binding | rat brain membranes | 500 nM, pH 7.5, 25 °C, added: 2 nM [3H]DPDPE |  | remaining binding | 83.5%
CC(C)CC(O)(CC(C)C)c1cn(C(=O)N2CCCC2)nn1 | Faah (Mus musculus, UniProt O08914) | probe labelling, inhibitor, competitive ABPP-SILAC | mouse T cells | concentration not given, 4 h, single peptide | relative to: treated over DMSO cells, lower = stronger inhibition | SILAC activity ratio | 1.05 and 1.19 and 1.11 and 1.1 and 1.43 and 1.13 and 1.27 and 1.37
C[C@H](NCc1ccc(-c2ccc(C(F)(F)F)cc2)cc1)C(N)=O | COQ8A (Homo sapiens, UniProt Q8NI60) | cell-free assay, competition with immobilised ligand |  | 1 µM |  | inhibition | 11%
CCCc1cc2cc(-n3nc(C4CC4)c4c3CC(C)(C)CC4=O)cc(N3CCC(O)CC3)c2c(=O)[nH]1 | HSP90AB1 (Homo sapiens, UniProt P08238) | fluorescence polarization |  |  | relative to: apparent KD Hsp90α over apparent KD HSP90AB1 | selectivity ratio | > 100 fold
CCCCC[C@@H]1OC(=O)[C@@H](C)N(C)C(=O)[C@H](CCCCC)OC(=O)[C@@H](C)N(C)C(=O)[C@H](CCCCC)OC(=O)[C@@H](C)N(C)C(=O)[C@H](CCCCC)OC(=O)[C@@H](C)N(C)C1=O | ryanodine receptor 2 (Sus scrofa, UniProt A0A5G2R1W3) | single-channel gating, planar lipid bilayer |  | 3 µM, pCa 7, porcine |  | closed dwell time constant T2 | 116 ± 27 ms
CCn1nc(Cl)c2c1-c1cnc(N)c(c1)O[C@H](C)c1cc(F)ccc1-c1nn(C)cc1C2 | EPHA7 (Homo sapiens, UniProt Q15375) | kinase activity, inhibitor |  |  | relative to: IC50 EPHA7 over IC50 ALK | selectivity ratio | 167 fold
